Measurements from different studies.
Compare with care: the assays were run in different laboratories.

Structure (SMILES)	organism	test	test system	conditions	how to read	measurement	result
CC[C@H](C)[C@H](NC(=O)[C@H](CCCNC(=N)N)NC(=O)[C@H](CCCNC(=N)N)NC(=O)[C@@H](N)CCCNC(=N)N)C(=O)N[C@@H](CO)C(=O)N[C@@H](Cc1ccccc1)C(=O)N[C@@H](CC(C)C)C(=O)NCC(=O)N[C@@H](CO)C(=O)N[C@@H](CCCCN)C(=O)N[C@H](C(=O)N[C@H](C(=O)N[C@H](C(=O)N[C@@H](CC(C)C)C(=O)N[C@@H](CC(C)C)C(=O)N[C@@H](CCCCN)C(=O)N[C@@H](CCCNC(=N)N)C(=O)N[C@@H](CCCNC(=N)N)C(=O)N[C@@H](CCCNC(=N)N)C(=O)N[C@@H](CCCNC(=N)N)C(N)=O)C(C)C)C(C)C)C(C)C	Pseudomonas aeruginosa	broth microdilution	ATCC 27853	highest value reported		MIC	16 µM
CC[C@H](C)[C@H](NC(=O)[C@H](CC(C)C)NC(=O)[C@H](CCCCN)NC(=O)[C@@H](NC(=O)[C@H](C)NC(=O)[C@H](CCC(=O)O)NC(=O)[C@H](Cc1c[nH]cn1)NC(=O)[C@@H](NC(=O)[C@H](CCCCN)NC(=O)[C@H](CCC(N)=O)NC(=O)[C@H](Cc1ccccc1)NC(=O)[C@@H](NC(=O)[C@H](CCCCN)NC(=O)[C@@H](N)CCCCN)C(C)C)[C@@H](C)CC)[C@@H](C)CC)C(N)=O	Pseudomonas aeruginosa	broth microdilution	4891 resistant	18 h, 37 °C		MIC	32 µM
N=C(N)NC(=N)Nc1cccc(Cl)c1	Plasmodium falciparum		3D7			IC50	10 µM
CC[C@H](C)[C@H](NC(=O)CNC(=O)[C@H](CC(=O)O)NC(=O)[C@H](CCCNC(=N)N)NC(=O)[C@@H](NC(=O)[C@H](CC(N)=O)NC(=O)[C@H](CCCNC(=N)N)NC(=O)CNC(=O)[C@@H](NC(=O)[C@H](CCCCN)NC(=O)[C@H](CCC(=O)O)NC(=O)[C@@H](NC(=O)[C@H](CCCCN)NC(=O)[C@H](CCCCN)NC(=O)[C@H](Cc1ccccc1)NC(=O)[C@@H](NC(=O)[C@H](CCCCN)NC(=O)[C@H](Cc1c[nH]c2ccccc12)NC(=O)[C@@H](N)CCCNC(=N)N)[C@@H](C)CC)[C@@H](C)CC)C(C)C)C(C)C)C(=O)N[C@H](C(=O)N[C@@H](CCCCN)C(=O)N[C@@H](C)C(=O)N1CCC[C@H]1C(=O)N1CCC[C@H]1C(=O)N[C@@H](C)C(=O)N[C@H](C(=O)N[C@@H](C)C(=O)N[C@H](C(=O)N[C@H](C(=O)NCC(=O)N[C@@H](CCC(N)=O)C(=O)N[C@@H](C)C(=O)N[C@@H](C)C(=O)N[C@H](C(=O)N[C@H](C(=O)N[C@H](C(=O)N[C@@H](CCCCN)C(N)=O)C(C)C)C(C)C)[C@@H](C)O)C(C)C)C(C)C)C(C)C)[C@@H](C)CC	Pseudomonas aeruginosa		KCCM 11328, Mueller-Hinton broth	16 h, 37 °C	growth inhibition over 99%	MIC	64 µM
CC(C)C[C@H](NC(=O)[C@@H](NC(=O)[C@H](CCCNC(=N)N)NC(=O)[C@H](CCC(N)=O)NC(=O)[C@H](Cc1ccccc1)NC(=O)[C@H](Cc1ccc(O)cc1)NC(=O)[C@H](CC(N)=O)NC(=O)[C@H](Cc1c[nH]c2ccccc12)NC(=O)[C@@H](NC(=O)[C@H](CCCNC(=N)N)NC(=O)[C@H](CCCCN)NC(=O)[C@@H](N)Cc1ccccc1)C(C)C)C(C)C)C(=O)N[C@H](C(=O)N[C@@H](CCCCN)C(=O)N[C@@H](CCCCN)C(N)=O)C(C)C	Pseudomonas aeruginosa	broth dilution	ATCC 27853			MIC	100 µM
CC[C@H](C)[C@H](NC(=O)[C@H](CO)NC(=O)CNC(=O)[C@H](CCCCN)NC(=O)[C@@H](NC(=O)[C@H](CC(N)=O)NC(=O)[C@H](Cc1ccccc1)NC(=O)[C@H](CC(N)=O)NC(=O)[C@@H](NC(=O)[C@H](CCCNC(=N)N)NC(=O)[C@@H]1CCCN1C(=O)[C@H](CCCNC(=N)N)NC(=O)[C@@H](NC(=O)[C@H](CCCNC(=N)N)NC(=O)[C@H](CCCNC(=N)N)NC(=O)[C@@H](NC(=O)[C@H](CCCNC(=N)N)NC(=O)[C@H](CO)NC(=O)[C@H](CC(C)C)NC(=O)[C@H](Cc1ccccc1)NC(=O)[C@H](CCCNC(=N)N)NC(=O)CNC(=O)[C@H](Cc1ccccc1)NC(=O)[C@H](CCCNC(=N)N)NC(=O)CNC(=O)[C@H](CCCNC(=N)N)NC(=O)[C@H](CCC(N)=O)NC(=O)[C@@H](NC(=O)[C@@H](N)CC(C)C)C(C)C)[C@@H](C)CC)[C@@H](C)CC)[C@@H](C)CC)[C@@H](C)CC)C(=O)O	Pseudomonas aeruginosa	broth microdilution	ATCC 27853, Mueller-Hinton broth	16 to 20 h, 37 °C		MIC	9.97 µM
C[C@@H](O)[C@H](NC(=O)[C@H](Cc1ccccc1)NC(=O)[C@H](Cc1c[nH]c2ccccc12)NC(=O)[C@H](Cc1ccccc1)NC(=O)[C@@H](NC(=O)[C@H](Cc1ccccc1)NC(=O)[C@H](CCCNC(=N)N)NC(=O)[C@@H](N)CCCNC(=N)N)[C@@H](C)O)C(=O)N[C@@H](Cc1ccccc1)C(=O)N[C@@H](CCCNC(=N)N)C(=O)N[C@@H](CCCNC(=N)N)C(N)=O	Pseudomonas aeruginosa	broth microdilution	27853, Mueller-Hinton broth	24 h, 37 °C, lowest concentration, 95% inhibition, together with: BSA		MIC	128 µM
CC1(C)S[C@@H]2[C@H](NC(=O)[C@H](N)c3ccccc3)C(=O)N2[C@H]1C(=O)O	Pseudomonas aeruginosa		fpvA mutant			MIC	> 200 µg/mL
CC[C@H](C)[C@H](NC(=O)[C@H](CCCCN)NC(=O)[C@@H](NC(=O)[C@@H](NC(=O)[C@H](CC(C)C)NC(=O)[C@H](CCCNC(=N)N)NC(=O)[C@@H](NC(=O)[C@H](CC(C)C)NC(=O)[C@H](CCCNC(=N)N)NC(=O)CNC(=O)[C@H](Cc1ccccc1)NC(=O)[C@@H](N)CCCNC(=N)N)[C@@H](C)CC)[C@@H](C)CC)C(C)C)C(=O)N[C@@H](C)C(=O)N[C@@H](CCCNC(=N)N)C(=O)N[C@@H](CCCNC(=N)N)C(=O)N[C@@H](C)C(=O)N[C@@H](Cc1c[nH]cn1)C(=O)N[C@@H](CCCNC(=N)N)C(=O)N[C@@H](C)C(=O)N[C@@H](CCCNC(=N)N)C(=O)N[C@@H](CO)C(=O)N[C@@H](C)C(=O)N[C@H](C(=O)N[C@@H](CCCCN)C(=O)N[C@@H](C)C(=O)N[C@@H](C)C(=O)N[C@@H](CO)C(=O)N[C@@H](CC(N)=O)C(=O)N[C@H](C(=O)N[C@@H](C)C(=O)N[C@@H](CCC(=O)O)C(=O)N[C@@H](CC(C)C)C(=O)N[C@@H](C)C(=O)N[C@@H](Cc1c[nH]cn1)C(=O)NCC(=O)N[C@@H](CCC(=O)O)C(=O)O)C(C)C)C(C)C	Pseudomonas aeruginosa	bacterial growth, broth microdilution	cation-adjusted Mueller Hinton broth	18 h, 37 °C		MIC	2 µM
CC1(C)SC2C(NC(=O)C(NC(=O)C3=C(O)C(Cc4ccc(F)cc4)NC3=O)c3ccccc3)C(=O)N2C1C(=O)O (stereo not drawn)	Pseudomonas aeruginosa		pvdS mutant			MIC	12.5 µg/mL
CN1C(=O)Cc2ccc(F)c(CNCCCC3CN(c4ccc5c(n4)NC(=O)CO5)C(=O)O3)c21 (stereo not drawn)	Pseudomonas aeruginosa		ATCC 27853			MIC	2 µg/mL
CC(C)(C)Oc1ccc(CC2NC(=O)C(C(=O)NC(C(=O)NC3C(=O)N4C3SC(C)(C)C4C(=O)O)c3ccccc3)=C2O)cc1 (stereo not drawn)	Pseudomonas aeruginosa		fpvA mutant			MIC	6.25 µg/mL
Cc1ccc2c(c1)CC[C@@](CCN(C)CCCc1nc3ccccc3[nH]1)(OC(=O)C1CC1)[C@H]2C(C)C	Plasmodium falciparum		GB4			IC50	1 µM
CC(C)CC1NC(=O)C(C(=O)NC(C(=O)NC2C(=O)N3C2SC(C)(C)C3C(=O)O)c2ccccc2)=C1O (stereo not drawn)	Pseudomonas aeruginosa		fpvA mutant			MIC	25 µg/mL
CC[C@H](C)[C@H](NC(=O)[C@H](Cc1ccc(O)cc1)NC(=O)[C@@H](NC(=O)[C@H](Cc1c[nH]c2ccccc12)NC(=O)[C@@H]1CCCN1C(=O)[C@@H](NC(=O)[C@H](C)N)[C@@H](C)CC)[C@@H](C)CC)C(=O)N[C@@H](Cc1ccc(O)cc1)C(=O)N[C@@H](CCCNC(=N)N)C(=O)N[C@@H](CC(C)C)C(=O)N[C@@H](CC(C)C)C(=O)N[C@@H](CCCNC(=N)N)C(=O)N[C@@H](CCCCN)C(=O)NCC(=O)O	Pseudomonas aeruginosa	broth microdilution	PAO1	18 h, 37 °C		MIC	15 µM

For quick reference, copied from above:
Structure (SMILES)	organism	test	test system	conditions	how to read	measurement	result
C[C@@H](O)[C@H](NC(=O)[C@H](Cc1ccccc1)NC(=O)[C@H](Cc1c[nH]c2ccccc12)NC(=O)[C@H](Cc1ccccc1)NC(=O)[C@@H](NC(=O)[C@H](Cc1ccccc1)NC(=O)[C@H](CCCNC(=N)N)NC(=O)[C@@H](N)CCCNC(=N)N)[C@@H](C)O)C(=O)N[C@@H](Cc1ccccc1)C(=O)N[C@@H](CCCNC(=N)N)C(=O)N[C@@H](CCCNC(=N)N)C(N)=O	Pseudomonas aeruginosa	broth microdilution	27853, Mueller-Hinton broth	24 h, 37 °C, lowest concentration, 95% inhibition, together with: BSA		MIC	128 µM
CC[C@H](C)[C@H](NC(=O)[C@H](Cc1ccc(O)cc1)NC(=O)[C@@H](NC(=O)[C@H](Cc1c[nH]c2ccccc12)NC(=O)[C@@H]1CCCN1C(=O)[C@@H](NC(=O)[C@H](C)N)[C@@H](C)CC)[C@@H](C)CC)C(=O)N[C@@H](Cc1ccc(O)cc1)C(=O)N[C@@H](CCCNC(=N)N)C(=O)N[C@@H](CC(C)C)C(=O)N[C@@H](CC(C)C)C(=O)N[C@@H](CCCNC(=N)N)C(=O)N[C@@H](CCCCN)C(=O)NCC(=O)O	Pseudomonas aeruginosa	broth microdilution	PAO1	18 h, 37 °C		MIC	15 µM
